Measured values pooled from the literature.
Numbers after ± are the reported error.

Structure (SMILES)	cell line	test	conditions	IC50
O=C(O)c1n[nH]cc1-c1nc2ccc3[nH]ncc3c2c2c1CCCC2	MV4-11	cell growth or viability, resazurin	72 h	> 5 µM
COc1cc(-c2nc3ccc(C(=O)NCCCN(C)C)cc3n2C2CCC2)cc(OC)c1OC	293 T-BRE-Luc	reporter gene, inhibitor	6 h, added: BMP2-induced BMP2 5 ng/mL	2.14 µM
CC(C)c1cccc(C(C)C)c1[N+]#[C][Pt-]([Cl])([Cl])=[C](Nc1cccc(CN[C](Nc2c(C(C)C)cccc2C(C)C)=[Au][Cl])c1)Nc1c(C(C)C)cccc1C(C)C	OVCAR-3	cell growth or viability		> 100 µM
CC(C)c1cccc(C(C)C)c1N1CCN(c2c(C(C)C)cccc2C(C)C)C1=[Se].[Cl][Ag]	H157 spheroids	acid phosphatase	72 h, 3D spheroid	24.4 ± 1.5 µM
CCCC/C=N/NC(=O)c1cc2cc(Nc3nccc(-c4cccnc4)n3)ccc2[nH]1	MCF-10A, LO2	cell growth, MTT	normal cell lines as group	> 50 µM
CC(C)=CCC1=C(O)c2c(occ(-c3ccc(O)cc3)c2=O)C(CC=C(C)C)(CC=C(C)C)C1=O	MDA-MB-231, Huh-7, KKU100, NHDF cells	cell viability, MTT	24 h	13.9 to 30.9 µM
Cn1ccn(N=Cc2ccccc2SSc2ccccc2C=Nn2ccn(C)c2=S)c1=S	breast, ovarian, colorectal cancer cells	MTT	72 h, all cell lines of panel	< 1 µM
Cc1nc(-c2ccc(Cl)cc2)nc(N2CCC(C)(N)CC2)c1Cc1ccccc1	SNU1197 (KRAS G12D)	cell viability, WST	72 h	7 ± 0.6 µM
O=C(/C=C/c1ccc(-c2ccccc2)cc1)NC(=O)N[C@@H]1O[C@H](CO)[C@@H](O)[C@H](O)[C@H]1O	L1210	cell growth or viability	48 h	206 µM
COC(=O)[C@@H]1[C@@H](OC)[C@H](OC(=O)c2cc(OC)c(OC)c(OC)c2)C[C@@H]2CN3CC[C@]4(O[C@@H]3C(=O)[C@@H]21)C(=O)Nc1cc(OC)c(-c2ccc(C(F)(F)F)cc2)cc14	SU-DHL-4	cell growth or viability, trypan blue	72 h	1.14 µM
C/C1=C\CC[C@@]2(C)O[C@H]2[C@H]2OC(=O)[C@@H](CSC(=S)NCCN(C)C)[C@@H]2CC1	KG-1a	cell growth or viability, MTT	72 h	7.9 µM
Cc1nc(Nc2ncc(C(=O)Nc3c(C)cccc3Cl)s2)cc(N2CCN(CCOC(=O)[C@@H](N)CS)CC2)n1	BV-173	cell growth or viability, MTT	72 h	0.00133 µM
CN1CCN(c2ccc(Nc3ncc(Cl)c(Nc4ccccc4NS(=O)(=O)C4CC4)n3)cc2)CC1	PC-9	cell growth or viability, CCK-8	48 h	0.0156 µM
CC(=O)OC[C@H]1O[C@@H](NC(=O)COc2ccc(-c3ccccc3)cc2)[C@H](OC(C)=O)[C@@H](OC(C)=O)[C@@H]1OC(C)=O	L1210	cell growth or viability	48 h	139 µM
O=c1[nH]c(=O)n([C@@H]2O[C@H](CO)[C@@H](O)[C@H](F)[C@H]2O)cc1F	L1210	cell growth or viability		> 200 µM
CN1CCCNC(=O)c2cccc(c2)C(=O)NCCCN(C)CCCNc2cccc3c2C(=O)c2cccc(c2C3=O)NCCC1	HSC-2	cell growth or viability, CCK-8	48 h	1 µM
C=C[CH2][Pd-]([Cl])[Cl].Cc1cc(C)c(-n2c[n+](-c3c(C)cc(C)cc3C)c3c2-c2cccc4cccc-3c24)c(C)c1	PSN1	cell growth or viability, MTT	72 h	5 µM
CC(C)c1cccc(C(C)C)c1-n1ccn(-c2c(C(C)C)cccc2C(C)C)c1=[Se].[Cl][Ag]	H157 spheroids	acid phosphatase	72 h, 3D spheroid	34.1 ± 2.2 µM
CONC(=O)[C@H]1[C@@H](O)[C@@]2(O)c3c(cc(OC)nc3OC)O[C@@]2(c2ccc(C#N)cc2)[C@@H]1c1ccccc1	4T1-526	mRNA translation, inhibitor, puromycin incorporation		~0.007 µM
CC(C)c1cccc(C(C)C)c1N=[C](NCc1cccc(N)c1)[AuH][Cl]	OVCAR-3	cell growth or viability		5 µM
C/C1=C\CC[C@@]2(C)O[C@H]2[C@H]2OC(=O)[C@@H](CSC(=S)N3CCN(C)CC3)[C@@H]2CC1	KG-1a	cell growth or viability, MTT	72 h	6.9 µM

Structure (SMILES)	cell line	test	conditions	IC50
C(=C\c1cnc2[nH]c3ccc(-c4ccc(OCc5nnn[nH]5)cc4)cc3c2c1)/c1ccccc1	parental Ba/F3 (IL-3 dependent)	cell proliferation, [3H]-thymidine incorporation		7.3 µM
COc1ccc2nc(NC(=O)c3ccc(C(N)c4ccccc4)cc3)sc2c1 (stereo not drawn)	NCI-H2122	cell growth or viability		0.022 µM
COc1ccc([C@@H]2CC(=O)c3c(O)cc(O[C@@H]4O[C@H](CO[C@@H]5O[C@@H](C)[C@H](O)[C@@H](O)[C@H]5O)[C@@H](O[C@H]5O[C@H](CO)[C@@H](O)[C@H](O)[C@H]5O)[C@H](O)[C@H]4O)cc3O2)cc1O	MRC5	cell growth or viability, MTS	72 h	149 mg/L
C=C(C)[C@@H](O)COc1c2ccoc2cc2oc(=O)ccc12	L5178Y	cell growth or viability, MTT	24 h	51.3 µM
O=C1C(Cl)=C(NCCN2CCCCC2)C(=O)c2ccccc21	HEC-1-A	cell growth or viability, MTT	48 h	1.07 µM
CC(C)c1cccc(C(C)C)c1[N+]#[C][Pd-]([Cl])([Cl])=[C](Nc1ccc(CN[C](NC(C)(C)C)=[Au][Cl])cc1)Nc1c(C(C)C)cccc1C(C)C	OVCAR-3	cell growth or viability		> 100 µM
C#Cc1cccc(Nc2ncnc3cc(OC)c(OCCCN4CCOCC4)cc23)c1	PC-9	cell growth or viability, SRB	72 h	< 1 µM
Oc1ccc(C(=NNc2ccccc2)c2ccc(O)cc2)cc1	HCT-15 (KRAS G13D)	cell viability, CellTiter-Glo	72 h	25.1 ± 10.6 µM
[Cl][Au].[Se]=c1n(C23CC4CC(CC(C4)C2)C3)ccn1C12CC3CC(CC(C3)C1)C2	PSN1	cell growth or viability, MTT	72 h	3.1 µM
Cc1ccc(CC(=O)N(CCCn2ccnc2)c2nc3ccccc3s2)c(C)c1	SW620 cells	colony formation		8.34 µM
CCCC(CCC)C(=O)[O][Pt]([NH2])([NH2])([Cl])([Cl])[O]C(=O)c1ccccc1OC(C)=O	2008 cisplatin-sensitive	cytotoxicity, MTT	72 h	0.69 ± 0.08 µM
COc1cc(-c2cc(=O)c3c(O)cc(OC4OC(COC5OC(C)C(O)C(O)C5O)C(O)C(O)C4O)cc3o2)ccc1O (stereo not drawn)	CEM/ADR5000 P-gp overexpressing	cell viability, resazurin reduction	72 h	> 100 µM
Cc1c(C)n(-c2c(C(C)C)cccc2C(C)C)c(=[Se])n1-c1c(C(C)C)cccc1C(C)C.[Cl][Au]	LoVo-OXP (oxaliplatin-resistant)	MTT	72 h	0.9 ± 0.3 µM
CC(C)c1ccc(/C=C/C(=O)N[C@@H]2O[C@H](CO)[C@@H](O)[C@H](O)[C@H]2O)cc1	L1210	cell growth or viability	48 h	> 250 µM
Oc1ccc(-c2csc(Cc3ccccc3)n2)c(O)c1	patient-derived fibroblasts	cell growth, PrestoBlue	72 h	67.1 µM
C=CCc1ccc(OCc2nnc(SCC(=O)Nc3ccccc3C(=O)OC)o2)c(OC)c1	MCF7, SK-OV-3, PC-3	cell growth, MTT		≤ 10 µM
CC1=CC2(C)C(=C(C)C3C4CC(C)CC(C)C4C4Oc5ccc(cc5)CC5(O)NC(=O)C(=C(O)C2C43)C5Nc2ncnc3c2ncn3C2OC(CO)C(O)C2O)C1C (stereo not drawn)	L5178Y	cell growth or viability, MTT	72 h	2 µM
CC(C)Cc1ccc(C(C)C(=O)[O][Pt]([NH2])([NH2])([Cl])([Cl])[O]C(=O)C(Cl)Cl)cc1 (stereo not drawn)	2008 cisplatin-sensitive	cytotoxicity, MTT	72 h	0.32 ± 0.09 µM
CC(C)c1cccc(C(C)C)c1-n1c(Cl)c(Cl)n(-c2c(C(C)C)cccc2C(C)C)c1=[Se].[Cl][Ag]	H157 spheroids	acid phosphatase	72 h, 3D spheroid	12.2 ± 5 µM
O=c1ccn([C@@H]2O[C@H](CO)[C@@H](O)[C@H](F)[C@H]2O)c(=O)[nH]1	L1210	cell growth or viability		> 200 µM
CCC(C(=O)O)C1CCC(C)C(C(C)C(O)C(C)C(=O)C(CC)C2OC3(C=CC(NCc4cn(COC(=O)C(C)(C)C)nn4)C4(CCC(C)(C5CCC(O)(CC)C(C)O5)O4)O3)C(C)CC2C)O1 (stereo not drawn)	HMLER CD24low/CD44high	cell proliferation	72 h	3.34 ± 0.08 µM
